# Assay results of several laboratories.
# Compare with care: the assays were run in different laboratories. ± gives the spread as reported.
Compound,cell line,test,system,setting,how to read,quantity,value
C[C@H](NC(=O)[C@H](CCCNC(=N)N)NC(=O)[C@H](CCC(=O)O)NC(=O)[C@H](CCCNC(=N)N)NC(=O)[C@H](CCCNC(=N)N)NC(=O)[C@@H](NC(=O)[C@H](CCCNC(=N)N)NC(=O)[C@H](C)NC(=O)[C@H](CCCNC(=N)N)NC(=O)[C@H](CCC(=O)O)NC(=O)[C@@H](N)CCCNC(=N)N)[C@@H](C)O)C(=O)N[C@@H](CCCNC(=N)N)C(=O)N[C@H](C(=O)N[C@@H](CCCNC(=N)N)C(=O)N[C@@H](CCC(=O)O)C(=O)N[C@@H](CCCNC(=N)N)C(=O)N[C@@H](C)C(=O)N[C@@H](CCCNC(=N)N)C(=O)N[C@H](C(=O)N[C@@H](CCCNC(=N)N)C(=O)O)[C@@H](C)O)[C@@H](C)O,A-375,MTT,,"up to 100 µM, 24 h",,cytotoxicity,not toxic
CCCCn1cc(C(=O)O)c(=O)c2cc(F)c(Nc3cccc(Cl)c3)c(N)c21,PANC-1,"cell growth or viability, SRB",,,,IC50,5.7 µM
CC[C@H](C)[C@H](N)C(=O)Oc1c(OC)ccc2c1[C@@]13CCN(C)[C@@H](C2)[C@H]1C=C(OC)C(=O)C3,RAW264.7,"cytotoxicity, MTT",,24 h,,IC50,> 100 µM
COc1cc2c(c3oc(-c4ccccc4)cc(=O)c13)C=CC(C)(C)O2,differentiated SH-SY5Y,MTT,,100 µM,reference: control,viability,98.8 ± 3.7%
CC1OCC2OC(OC3C(N)CC(N)C(O)C3OC3OC(CO)C(OC4OC(CN)C(O)C(O)C4N)C3O)C(N)C(O)C2O1 (stereo not shown),NIH 3T3,alamarBlue,,concentration not given,,cytotoxicity,not toxic
CC[C@H](C)[C@H](NC(=O)[C@H](CCCCN)NC(=O)[C@H](C)NC(=O)[C@H](CC(C)C)NC(=O)[C@H](C)NC(=O)[C@H](CO)NC(=O)[C@H](CC(C)C)NC(=O)[C@H](CC(C)C)NC(=O)[C@H](CCCCN)NC(=O)[C@@H]1CCCN1C(=O)[C@H](CC(C)C)NC(=O)[C@H](Cc1ccccc1)NC(=O)[C@H](CCCCN)NC(=O)[C@H](CCCCN)NC(=O)[C@H](CCCCN)NC(=O)[C@H](CCCCN)NC(=O)[C@H](CCCCN)NC(=O)[C@@H](N)CCCCN)C(=O)N[C@@H](CC(C)C)C(N)=O,horse erythrocytes,,,"MIC against Staphylococcus aureus, 2 h, 37 °C",reference: Triton X-100,haemolysis,36.6%
COC1(c2ccccc2)CC(=O)c2c(cc3c(c2O)C=CC(C)(C)O3)O1 (stereo not shown),differentiated SH-SY5Y,MTT,,0.1 µM,reference: control,viability,99.2 ± 3.6%
CC[C@H](C)[C@H](NC(=O)[C@H](CO)NC(=O)[C@H](CO)NC(=O)[C@H](CC(C)C)NC(=O)[C@H](CCCCN)NC(=O)[C@H](CCCNC(=N)N)NC(=O)[C@H](CCCNC(=N)N)NC(=O)[C@H](CCCNC(=N)N)NC(=O)[C@H](CCC(N)=O)NC(=O)[C@H](CCCNC(=N)N)NC(=O)[C@H](CCCNC(=N)N)NC(=O)[C@H](CCCCN)NC(=O)[C@H](CCCCN)NC(=O)[C@H](CCCNC(=N)N)NC(=O)CNC(=O)[C@H](Cc1ccc(O)cc1)NC(=O)c1ccc2c(c1)C(=O)OC21c2ccc(N(C)C)cc2Oc2cc(N(C)C)ccc21)C(=O)N[C@@H](CCC(=O)O)C(=O)N[C@@H](C)C(=O)N[C@@H](CC(=O)O)C(=O)N[C@@H](C)C(=O)O,mouse primary neurons,confocal microscopy,,"1, 5 and 10 µM, 60 min, 37 °C",,cellular uptake,increased
NC(=S)N/N=C/c1ccc(OCc2ccccc2)cc1,IMR-32,MTT,,concentration not given,,cytotoxicity,not toxic
COc1c2c(cc3oc(-c4ccccc4)cc(=O)c13)OC(C)(C)C=C2,differentiated SH-SY5Y,MTT,,1 µM,reference: control,viability,97.1 ± 1.2%
N=C(N)NCCC[C@@H]1NC(=O)[C@H](Cc2csc3ccccc23)NC(=O)[C@@H](Cc2ccccc2)NC(=O)[C@H](Cc2ccccc2)NC(=O)[C@H](CCC(=O)NCCOCCOCC(=O)N[C@@H](CCCCNC(=O)c2ccc3c(c2)C(=O)OC32c3ccc4cc(O)ccc4c3Oc3c2ccc2cc(O)ccc32)C(N)=O)NC(=O)[C@@H](CCCNC(=N)N)NC(=O)[C@H](CCCNC(=N)N)NC(=O)[C@@H](CCCNC(=N)N)NC1=O,HeLa,"cell penetration, flow cytometry",,"5 µM, 2 h, 37 °C, 10% FBS",reference: CPP12,cytosolic entry,375 ± 48%
CC(=O)N(O)CCCP(=O)(O)O,L5178Y TK+/- mouse lymphoma,,,"2200 µg/mL, 4 h, with S9",reference: vehicle,relative cell count,116%
CC(C)C[C@H](NC(=O)[C@H](Cc1c[nH]cn1)NC(=O)[C@H](Cc1ccc(O)cc1)NC(=O)[C@H](CCCNC(=N)N)NC(=O)[C@H](Cc1ccc(O)cc1)NC(=O)[C@H](CCCCN)NC(=O)[C@@H](N)CCCCN)C(=O)N[C@@H](CCCCN)C(=O)N1CCC[C@H]1C(=O)N[C@@H](Cc1ccccc1)C(=O)NCCCC[C@H](NC(=O)[C@H](Cc1ccccc1)NC(=O)[C@@H]1CCCN1C(=O)[C@H](CCCCN)NC(=O)[C@H](CC(C)C)NC(=O)[C@H](Cc1c[nH]cn1)NC(=O)[C@H](Cc1ccc(O)cc1)NC(=O)[C@H](CCCNC(=N)N)NC(=O)[C@H](Cc1ccc(O)cc1)NC(=O)[C@H](CCCCN)NC(=O)[C@@H](N)CCCCN)C(N)=O,Swiss mouse peritoneal macrophages,MTT,,concentration not given,,cytotoxicity,not toxic
CC(=O)N[C@@H](CO)C(=O)N[C@@H](CC(=O)O)C(=O)N[C@@H](CCCCNC(=O)CCCC[C@@H]1SC[C@@H]2NC(=O)N[C@@H]21)C(=O)N1CCC[C@H]1C(=O)O,A549,flow cytometry,,"40 µg/mL, 15 min, 37 °C",reference: cells,cellular uptake,17.7 ± 0.5%
CC1(C)C=Cc2c(cc3oc(-c4ccccc4)cc(=O)c3c2O)O1,differentiated SH-SY5Y,MTT,,0.1 µM,reference: control,viability,103 ± 3.6%
Cc1ncsc1-c1ccc(CNC(=O)[C@@H]2C[C@@H](O)CN2C(=O)[C@@H](NC(=O)CCCCCCCCCC(=O)NCCN2CCN(Cc3cccc(-c4ccc(N5CCN(C)CC5)c(NC(=O)c5c[nH]c(=O)cc5C(F)(F)F)c4)c3)CC2)C(C)(C)C)cc1,Sf9,LC-MS,,"10 µM, 24 h",reference: total recovery,cellular fraction of compound,29%
CCCCn1cc(C(=O)O)c(=O)c2cc(F)c3c(nnn3-c3ccccc3Cl)c21,T47D,"cell growth or viability, SRB",,,,IC50,173 µM
N=C(N)NCCC[C@H](NC(=O)[C@H](CCCNC(=N)N)NC(=O)[C@@H]1CCCN1C(=O)[C@H](CCCNC(=N)N)NC(=O)[C@H](CCCNC(=N)N)NC(=O)[C@H](CCCNC(=N)N)NC(=O)[C@H](Cc1c[nH]c2ccccc12)NC(=O)[C@H](CCCNC(=N)N)NC(=O)[C@H](CCCNC(=N)N)NC(=O)[C@H](CCCNC(=N)N)NC(=O)[C@H](CCCNC(=N)N)NC(=O)[C@H](CCCNC(=N)N)NC(=O)[C@H](Cc1c[nH]c2ccccc12)NC(=O)[C@H](CCCNC(=N)N)NC(=O)[C@H](CCCNC(=N)N)NC(=O)[C@H](Cc1ccc(O)cc1)NC(=O)[C@H](CCCNC(=N)N)NC(=O)[C@H](CCCNC(=N)N)NC(=O)[C@H](CCCNC(=N)N)NC(=O)[C@@H](N)Cc1c[nH]c2ccccc12)C(N)=O,human red blood cells,,,"100 µM, 24 h, pH 7.4, 37 °C, 0.25% v/v erythrocytes",,maximum haemolysis,61.8 ± 2%
COC(=O)C1CN1S(=O)(=O)c1ccc(C)cc1F (stereo not shown),Balb/c 3T3 fibroblasts,"cytotoxicity, neutral red uptake",DMEM with 5% FBS,24 h,,IC50,866 ± 173 µM
CCCCn1cc(C(=O)O)c(=O)c2cc(F)c(Nc3ccccc3Cl)c([N+](=O)[O-])c21,PANC-1,"cell growth, SRB",,72 h,,IC50,49.5 ± 3.91 µg/mL
CC[C@H](C)[C@H](NC(=O)[C@H](CCCCN)NC(=O)[C@H](C)NC(=O)[C@H](CCCNC(=N)N)NC(=O)[C@H](CCCCN)NC(=O)[C@H](CC(N)=O)NC(=O)[C@H](CCC(N)=O)NC(=O)[C@H](Cc1ccccc1)NC(=O)[C@H](Cc1c[nH]c2ccccc12)NC(=O)[C@@H](NC(=O)[C@H](CCCCN)NC(=O)[C@@H](NC(=O)[C@H](CCC(N)=O)NC(=O)[C@H](CO)NC(=O)[C@H](CCCNC(=N)N)NC(=O)[C@@H]1CCCN1C(=O)[C@H](CCCNC(=N)N)NC(=O)[C@H](CCCCN)NC(=O)[C@H](CC(=O)O)NC(=O)[C@H](CCC(=O)O)NC(=O)[C@H](CCCCN)NC(=O)[C@H](CC(N)=O)NC(=O)[C@@H]1CCCN1C(=O)[C@H](CC(N)=O)NC(=O)[C@H](CCCCN)NC(=O)[C@H](CCCCN)NC(=O)[C@H](CCCCN)NC(=O)[C@@H]1CCCN1C(=O)[C@H](CCCCN)NC(=O)[C@H](CCCNC(=N)N)NC(=O)[C@H](CO)NC(=O)[C@H](CCCNC(=N)N)NC(=O)CNC(=O)CNC(=O)CNC(=O)CNC(=O)CNC(=O)CCCC[C@@H]1SC[C@@H]2NC(=O)N[C@@H]21)[C@@H](C)CC)[C@@H](C)CC)C(=O)N[C@@H](CCCCN)C(=O)N[C@@H](CCCCN)C(N)=O,Caov-3,MALDI-TOF MS,,"7 µM, 1 h, 37 °C",reference: Caov-3 over CHO-K1,cellular uptake ratio,2 fold
COC(=O)C1CN1S(=O)(=O)c1ccc(C)cc1 (stereo not shown),Balb/c 3T3 fibroblasts,"cytotoxicity, neutral red uptake",DMEM with 5% FBS,24 h,,IC50,46 ± 10 µM
COc1c(C(=O)/C=C/c2ccccc2)ccc2occc12,differentiated SH-SY5Y,MTT,,100 µM,reference: control,viability,15.9 ± 3%
CCCCn1cc(C(=O)O)c(=O)c2cc(F)c(Nc3ccccc3Cl)c(N)c21,T47D,"cell growth, SRB",,72 h,,IC50,4.4 ± 0.9 µg/mL
C(#Cc1cncc(OC[C@@H]2CCN2)c1)c1ccccc1,Caco-2,Caco-2 permeability,,"100 µM, 2 h, pH 7.4, added: MK-571 100 µM",,Papp B to A,26.9 ± 0.32 ×10⁻⁶ cm/s
CCCCn1cc(C(=O)O)c(=O)c2cc(F)c3c(nnn3-c3cccc(Cl)c3)c21,PANC-1,"cell growth, SRB",,72 h,,IC50,23.1 ± 3.55 µg/mL
O=C(NC12CC3CC(CC(C3)C1)C2)N1CCCC2=CC3CC(CN4CCCCC34)C21 (stereo not shown),Huh-7,cytotoxicity,,,,CC50,> 267 µM
COc1c(C(=O)/C=C(\O)c2ccccc2)ccc2c1C=CC(C)(C)O2,differentiated SH-SY5Y,MTT,,100 µM,reference: control,viability,82.3 ± 2.5%
C=C1C(=O)O[C@H]2C[C@H](C)C(/C=C/C(C)=O)=CC[C@H]12,MDCK,cell morphology,,,,minimum cytotoxic concentration,4 µM
CC(C)(O)c1cc2c(ccc3c(=O)cc(-c4ccccc4)oc32)o1,differentiated SH-SY5Y,MTT,,0.1 µM,reference: control,viability,100 ± 2.5%
NC(=O)c1ccc(C(=O)NOCc2ccc(Sc3cccc(Cl)c3)c(C(F)(F)F)c2)cc1,Panc02 cells (mouse),CCK-8,,100 µM,,cytotoxicity,not toxic

# Excerpt of the above:
Compound,cell line,test,system,setting,how to read,quantity,value
NC(=O)c1ccc(C(=O)NOCc2ccc(Sc3cccc(Cl)c3)c(C(F)(F)F)c2)cc1,Panc02 cells (mouse),CCK-8,,100 µM,,cytotoxicity,not toxic
CCCCn1cc(C(=O)O)c(=O)c2cc(F)c3c(nnn3-c3ccccc3Cl)c21,T47D,"cell growth or viability, SRB",,,,IC50,173 µM
